# Results collected from several papers.
# Compare with care: the assays were run in different laboratories. Numbers after ± are the reported error.
SMILES,target or system,assay,system,setting,how to read,quantity,result
CCOc1cncc(-c2ccc(NC(=O)C3(c4ccnc(NS(=O)(=O)C5CC5)n4)CCOCC3)nc2)n1,MM.1R,"cell growth or viability, ATP luminescence",,72 h,,IC50,25 nM
COC1CN([C@H]2CC[C@H]([C@@]3(C)Oc4c(Cl)cc(C(=O)NCc5c(SC)cc(C)[nH]c5=O)c(C)c4O3)CC2)C1,,"RNA-seq, item: AFAP1L1 mouse homolog","mouse, HT-1376 xenograft, whole blood",dose not given,baseline: vehicle,log2 fold change,1.14
CCN(CC)CC(=O)Nc1cccc(-n2cc(-c3ccc4ccc(-c5cn(-c6cccc(NC(=O)CN(CC)CC)c6)nn5)cc4c3)nn2)c1,RCC4,"PCR array, item: ENG",,"5 x IC50, 4 h, normoxia",baseline: untreated,fold regulation,1.1
CN1CCCNC(=O)c2cccc(c2)C(=O)NCCCN(C)CCCNc2cccc3c2C(=O)c2cccc(c2C3=O)NCCC1,telomeric G-quadruplex DNA,"DNA thermal stabilisation, CD melting",,"concentration not given, pH 7.4, together with: 100 mM NaCl",,ΔTm,4.9 ± 0.1 °C
CC(C)c1ccc(N(C)c2ccc3c(c2)OCC[C@H]3CNc2cnccc2C(=O)O)cc1,MDA-MB-175-VII,"cell viability, CellTiter-Glo",,7 days,,IC50,≥ 10000 nM
c1ccc(-c2n[nH]cc2-c2ccnc3ccccc23)nc1,YPK1 (Candida albicans),"kinase binding, MIB/MS competition",Candida albicans lysate,10 µM,baseline: DMSO,log2 fold change,-0.14
C=CC(=O)Nc1cccc(Cn2ncc3cnc(Nc4cnn(CCOC)c4)nc32)c1,CAMK2D human,"binding, KINOMEscan",,100 nM,lower = stronger binding,percent of control,100%
C=CC(=O)N1[C@@H](c2ccc3c(c2)OCO3)c2[nH]c3ccccc3c2C[C@H]1C(=O)N1CCN(C)CC1,human cyclin E1 wild type-3xFLAG:CDK2,"co-IP with TMT proteomics, item: NUP98",,"concentration not given, P52948",baseline: wild type DMSO,relative co-enrichment,103%
Cc1cc(Cl)c(OCCOCCN2CCN(C)CC2)c(Br)c1.O=C(O)C(=O)O,Trypanosoma cruzi,"reporter mRNA translation, inhibitor, item: Renilla luciferase mRNA",cell-free extract,"concentration not given, test 3",baseline: positive over negative control,translation activity,118%
C=C(NC(=O)c1csc(-c2nc3c(cc2O)-c2nc(cs2)C(=O)NC(C(C)O)C(=O)NC(=C(C)OC)c2nc(cs2)C(=O)NC2c4nc(cs4)C(=O)NC(COC(=O)c4c5c6c(cccc6n4O)COC(=O)C(OC4CC(C)(O)C(N(C)C)C(C)O4)C2OC5)c2nc-3cs2)n1)C(N)=O (centres unmarked),Streptococcus pneumoniae,,"-4, immunocompromised mice, lung infection, lung","8 mg/kg/day three times daily, 24 h post-dose",,bacterial load,3.92 log CFU/g
Cn1ncc2cc(-c3cncc(Cl)c3N3CCC4(CCNC4=O)CC3)ccc21,LS174T,"microarray, item: IL17C",,"concentration not given, 4 h, gene set IL-17C",baseline: untreated cells,fold change in expression,-2.31
O=c1[nH]cc(C(c2cccc(C(F)(F)F)c2)c2c[nH]c(=O)[nH]c2=O)c(=O)[nH]1,HIV-1 subtype C,"p24 antigen production, p24 ELISA",,500 µg/mL,,inhibition,63%
CC1=CC(OC=C2C(=O)OC3c4ccccc4CC23)OC1=O (racemic),Phelipanche ramosa,seed germination,,1 µM,baseline: (±)-compound,Emax,100%
Nc1ncc(-c2cc(-c3cnn(CC(F)(F)F)c3)ncc2F)nc1C(=O)NC1CNCC(F)C1 (centres unmarked),MAP3K1,KINOMEscan,,1 µM,baseline: DMSO control,remaining binding,100%
CNS(=O)(=O)Nc1nccc(Cc2c(C)c3ccc(Oc4ncccc4F)cc3oc2=O)c1F,HCC1588,cell viability,,7 days,,IC50,> 1000 nM
Cc1ncsc1-c1ccc(C(C)NC(=O)C2CC(O)CN2C(=O)C(NC(=O)CCCCCCCCCCN2CCCC(Nc3ncc(Cl)c(Nc4ccccc4S(=O)(=O)C(C)C)n3)C2)C(C)(C)C)cc1 (centres unmarked),22Rv1,"RNA-seq, item: RHBDD1 mRNA",,concentration not given,baseline: DMSO,log2 fold change,-1.25
CC(C)Oc1ccc(CNCCC2(C(C)C)CCOC(C)(C)C2)cc1 (centres unmarked),Trypanosoma cruzi,"reporter mRNA translation, inhibitor, item: Renilla luciferase mRNA",cell-free extract,"concentration not given, test 1",baseline: positive over negative control,translation activity,63.5%

# A few entries again:
SMILES,target or system,assay,system,setting,how to read,quantity,result
Cc1ncsc1-c1ccc(C(C)NC(=O)C2CC(O)CN2C(=O)C(NC(=O)CCCCCCCCCCN2CCCC(Nc3ncc(Cl)c(Nc4ccccc4S(=O)(=O)C(C)C)n3)C2)C(C)(C)C)cc1 (centres unmarked),22Rv1,"RNA-seq, item: RHBDD1 mRNA",,concentration not given,baseline: DMSO,log2 fold change,-1.25
